Results of several laboratories.
Numbered parts are unrelated; each lists some results of a single study.

Study 1 — method: universal PBM; molecule type: double-stranded DNA, one strand shown; medium: in vitro; tested at: 600 nM; reading: higher = stronger binding; quantity: E-score
Target: Sal-like protein 4, full length isoform A (SALL4, Homo sapiens, UniProt Q9UJQ4, residues 1-1053)
Sequence of UniProt Q9UJQ4 (whole entry, looked up): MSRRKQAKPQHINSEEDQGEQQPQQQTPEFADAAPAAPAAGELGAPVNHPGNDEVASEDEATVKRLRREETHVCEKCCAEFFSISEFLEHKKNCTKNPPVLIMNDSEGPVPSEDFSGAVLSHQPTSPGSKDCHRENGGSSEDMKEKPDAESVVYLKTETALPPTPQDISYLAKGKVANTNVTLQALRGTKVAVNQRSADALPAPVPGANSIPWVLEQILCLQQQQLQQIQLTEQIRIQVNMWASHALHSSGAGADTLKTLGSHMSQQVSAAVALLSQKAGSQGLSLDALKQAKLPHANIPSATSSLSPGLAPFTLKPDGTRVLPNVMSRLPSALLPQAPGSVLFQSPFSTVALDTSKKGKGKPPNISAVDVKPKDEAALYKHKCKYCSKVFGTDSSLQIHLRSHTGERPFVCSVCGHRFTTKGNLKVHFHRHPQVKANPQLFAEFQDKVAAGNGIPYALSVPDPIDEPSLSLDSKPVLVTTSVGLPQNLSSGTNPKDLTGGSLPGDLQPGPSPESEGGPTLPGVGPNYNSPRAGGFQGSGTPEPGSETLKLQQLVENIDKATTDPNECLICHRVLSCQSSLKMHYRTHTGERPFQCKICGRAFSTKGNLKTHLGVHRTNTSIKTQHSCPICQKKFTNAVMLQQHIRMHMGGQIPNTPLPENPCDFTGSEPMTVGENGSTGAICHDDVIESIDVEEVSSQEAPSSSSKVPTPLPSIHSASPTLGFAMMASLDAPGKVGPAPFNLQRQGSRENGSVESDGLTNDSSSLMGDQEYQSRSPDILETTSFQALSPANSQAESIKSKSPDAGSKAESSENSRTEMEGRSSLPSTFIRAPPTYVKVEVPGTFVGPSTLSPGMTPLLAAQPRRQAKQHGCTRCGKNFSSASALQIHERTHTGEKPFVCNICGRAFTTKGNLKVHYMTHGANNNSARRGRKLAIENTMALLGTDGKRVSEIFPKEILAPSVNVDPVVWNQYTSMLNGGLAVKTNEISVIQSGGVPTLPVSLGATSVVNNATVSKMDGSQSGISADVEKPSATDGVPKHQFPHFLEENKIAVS
Notes: 8-mer, flanks averaged, mean of replicates
Strand = TCACATCA; result = 0.149
Strand = AGCAGTCC; result = -0.193
Strand = ATTTGGTC; result = 0.00102
Strand = GCATGAGC; result = -0.0942
Strand = ATGAGGAG; result = 0.0566
Strand = AAACATTG; result = 0.171
Strand = CCGGTGAG; result = -0.333
Strand = ATGAATCC; result = 0.171

Study 2 — effect on: enzyme activity; action: inhibitor; tested at: 20 µM; quantity: inhibition
Target: Replicase polyprotein 1ab, polymerase (rep, Severe acute respiratory syndrome coronavirus 2, UniProt P0DTD1)
SMILES = Cc1cc(OCc2nc(-c3ccccc3Cl)cs2)ccc1OCC(=O)O; result = 5.54%
SMILES = N/C(=N\C(=O)c1nc(Cl)c(N)nc1N)NCc1ccccc1; result = -2.08%
SMILES = CNc1cc2c(Nc3cccc(Br)c3)ncnc2cn1; result = 6.87%
SMILES = COc1cccc(OCCCN)c1-c1cc(Nc2cnc(C#N)cn2)n[nH]1; result = 0.07%
SMILES = c1cc(-c2cnn3cc(-c4ccc(N5CCNCC5)cc4)cnc23)c2cccnc2c1; result = 18.2%
SMILES = COc1ccc([C@]2(C#N)CC[C@@H](C(=O)O)CC2)cc1OC1CCCC1; result = -0.53%
SMILES = COc1ccc(CNC(=O)c2sc3nc(C)cc(C)c3c2N)cc1; result = 8.65%
SMILES = O=C(NC[C@H]1CN(c2ccc(N3CCOCC3=O)cc2)C(=O)O1)c1ccc(Cl)s1; result = -5.16%
SMILES = CNCCN(C)Cc1c[nH]nc1-c1ccc(O[C@H]2C[C@H](OCCC3CCOCC3)C2)cc1; result = -0.83%
SMILES = C=C(CC)C(=O)c1ccc(OCC(=O)O)c(Cl)c1Cl; result = 8.63%
SMILES = CCCCCCCCCCCCCCCC=O; result = -1.54%
SMILES = COc1ccc(-c2sc(NC(=O)C(C)(C)C)nc2C)cc1S(=O)(=O)Nc1ccc(O)cc1; result = 0.17%
SMILES = CC(=O)N1CCC(C(=O)N(CCCN2CCC(Cc3ccc(C(N)=O)cc3)CC2)c2ccc(C)c(Cl)c2)CC1; result = -0.95%
SMILES = O=C1N(c2ccccc2)c2ccccc2C1(Cc1ccncc1)Cc1ccncc1; result = 1.81%
SMILES = Cc1ccc(-c2n[nH]c3c2C(c2cccc(O)c2)N(c2ccc(C(=O)O)cc2)C3=O)cc1 (centres unmarked); result = 17.6%
SMILES = O=C1CCC[C@@H]2[C@H]3CCCN4CCC[C@@H](CN12)[C@@H]34; result = -1.86%
SMILES = CN(C)CCCSc1ccccc1NC(=O)/C=C/c1ccccc1; result = 2.79%
SMILES = NS(=O)(=O)OC[C@@H]1C[C@@H](n2ccc3c(N[C@H]4CCc5ccccc54)ncnc32)C[C@@H]1O; result = -3.44%
SMILES = O=C(O)c1ccccc1-c1c2cc(I)c(=O)c(I)c-2oc2c(I)c(O)c(I)cc12; result = 96.1%
SMILES = CO[C@H]1CC[C@H](N2C(=O)CNc3ncc(-c4ccc(C(C)(C)O)nc4)nc32)CC1; result = 5.72%
SMILES = NCc1ccccc1Sc1ccccc1CO; result = 3.36%
SMILES = Cc1[nH]c(/C=C2\C(=O)Nc3ccc(S(=O)(=O)Cc4c(Cl)cccc4Cl)cc32)c(C)c1C(=O)N1CCC[C@@H]1CN1CCCC1; result = 15.2%
SMILES = O=C(O)/C=C1\CCCc2ccccc2C1O (centres unmarked); result = -1.1%
SMILES = CCCCCCCCCCCCCCCCCCN(CCCCCCCCCCCCCCCCCC)CCCN(CCO)CCO; result = -8.14%
SMILES = O=C(Nc1cc(C(F)(F)F)ccc1O)Nc1cc(C(F)(F)F)ccc1O; result = -5.79%

Study 3 — method: RNA Bind-n-Seq; molecule type: RNA; medium: in vitro; tested at: 1 µM; notes: whole 134-nt RNA, ends assumed; with: 150 mM KCl; reference: input library; reading: higher = stronger binding; quantity: log2 enrichment
Target: Ras GTPase-activating protein-binding protein 1, RRM domain (G3BP1, Homo sapiens, UniProt Q13283)
Sequence of UniProt Q13283 (whole entry, looked up): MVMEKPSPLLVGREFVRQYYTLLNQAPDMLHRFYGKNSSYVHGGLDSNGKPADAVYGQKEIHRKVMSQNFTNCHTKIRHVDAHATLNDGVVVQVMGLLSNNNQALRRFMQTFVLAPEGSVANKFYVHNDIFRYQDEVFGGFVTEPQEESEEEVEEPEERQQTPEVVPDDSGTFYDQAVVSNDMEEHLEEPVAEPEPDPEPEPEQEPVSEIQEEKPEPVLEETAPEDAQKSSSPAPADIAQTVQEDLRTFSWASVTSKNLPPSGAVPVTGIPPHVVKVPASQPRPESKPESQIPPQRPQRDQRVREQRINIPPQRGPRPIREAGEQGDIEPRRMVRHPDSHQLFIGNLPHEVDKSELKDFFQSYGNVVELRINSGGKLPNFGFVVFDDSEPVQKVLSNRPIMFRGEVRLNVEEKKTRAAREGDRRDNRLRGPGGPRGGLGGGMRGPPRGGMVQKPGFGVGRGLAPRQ
Constant ends, left off below: GGGAGUUCUACAGUCCGACGAUC … UGGAAUUCUCGGGUGUCAAGG
Strand = UAACUUUAGAGGAGGAGCUGAUGGAUAUGGCAGUGGACGUGGAUUUGGGGAUGGCUAUAAUGGGUAUGGAGGAGGACCUGGAGGUGGCAA; result = -0.662
Strand = UUACAGAUGUAGAGCUAAAACGACUGAAGGAUGCUUUCAAGAGGACCUGUGGACUCUCAUAUUACAUGGGCCAGCACUGCUUCAUCCGGG; result = 0.188
Strand = AGUCCUGUGCUACACAUCGUAUGUACCGAAUCGGCCCCCGGGCCCCCGGCCCCCGGGAAAGUAUUAUGUUACGCCGUUCGGAUCUGCACU; result = -0.474
Strand = UGGGAGGUGGAUUUUGUUUAUUUUUUUACCUCAUUUCCAGGGGUGGGAAUUUUUUUUUAAUAUGUGUCAUGAAUAAAGUUGUUUUUGAAA; result = 1.75
Strand = UUUAGGUGUUAGACGGUACCGACAACCAGUAUUUGGGCCUGCAGAUUGGACAGCCCCAGGAUGAAGAUGAGGAAGCCACAGGUAUUCUUC; result = -0.208
Strand = UGCAGCUCUCCGGCUGGGAUCCUGGUUGACGCCAUGUCCCAGAAGCACCUUCAGAUCAACCAGACAUUUGAGGAGCUGCGACUGGUCACG; result = -0.421
Strand = UCAAGUCCUGUGCUACACAUCGUAUGUACCGAAUCGGGUUGGGGUUGGGGUUGGGAAAGUAUUAUGUUACGCCGUUCGGAUCUGCACUUC; result = 0.969

Study 4 — method: RNA Bind-n-Seq; molecule type: RNA; medium: in vitro; tested at: 365 nM; reference: no-protein control; reading: higher = stronger binding; quantity: RBNS enrichment (R)
Target: RNA binding protein fox-1 homolog 2, RRM domain, GST-SBP tag (RBFOX2, Homo sapiens, UniProt O43251-10, residues 100-194)
Notes: natural RNA segment, single round, ends assumed
Constant ends, left off below: GGGAGUUCUACAGUCCGACGAUC … UGGAAUUCUCGGGUGCCAA
Target sequence (chain): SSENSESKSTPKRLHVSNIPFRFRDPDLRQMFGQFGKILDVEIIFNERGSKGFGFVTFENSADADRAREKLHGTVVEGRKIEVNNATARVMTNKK
Strand = CUAUUCUGCAAAUAGUGUAUUUCCUGGAUUACACAUAGUAUGGUUUCCUGAAGUAUUCUGAUAAAUGUGUUUUUUAAAACCUCAAUAUACUUUUUAGAAAAGGAGCAUCU; result = 0.294
Strand = CUGGGCCUCACCCUUAGACUGAGGCUGCACCCAUUCCUUAGAGGCUACUUCAGUUGCCUGACAAGAUCAAACUGGAUGAUAUAGCCAUCUGGCUUCUUCCAGAGACAUGG; result = 0.26
Strand = GCCAUUUGAACUUUCGUAAGAGACCUCAGCAGUUAGACUGAGAAAAGUUAGAGUGCUGUAGUUAUGAAGUCAUACAUUUUUGAUAAAAUACCUGUGGAAAACCAGGGAUC; result = 0.477
Strand = CAGGCACCAAGUGCGUAGGCGACGGUAGAUGUUUGCUGAUUGAAUUGAGUCCCCACGGCAUCUCUGGGAGGCAGGUGGUGAGCUCUUCACACAUCUUGAGCGAGAAGGCA; result = 3.61
Strand = UUUUUCUACCAACUCUCCAGAGCGUGAGUAUAGGAGUGCCAUGAGCUUUUUAGUCAGCAGUUUUGUAAACUCUGUAUAUAAAAUCAUUAACCACACAUUGUGGGUGAUGG; result = 0.397
Strand = UCUCUGAUUUUGCCUCCUCACUCUGUGUCUGGCUUUGCUCCUGGGUCUUGGCCCUGGGCCAUAUGAGGGGCCAGGAAAUGAACGACAAGGAGGAUAAGAGUGUUCUUUCU; result = 1.13
Strand = UAGGAAACCCACUUUAGUUGAAUGUGUUAAGUGAAAUACUUGUACUUCCCUCCCCCUCUGUCAACUGCUGUGAAUGCUGUAUGGUGUGUGUUCUCCUCUGUUACUGAUCU; result = 2.5
Strand = UCAAAGAGACAAGGGACUCGUUUCUACCCCUGGUAAUGCGAGGUGCUGCUUCUGUGUGUCAAGGCUUCAACCAGGUCCCUCUUCCUCUGACUCUGGCACCAUGCCAGCUG; result = 0.339

Mixed results — cell line: HEK-293T; effect on: pseudovirus infection; organism: VSV pseudotyped with SARS-CoV-2 spike; tested at: 10 µM; time: 16 h; reference: vehicle-treated
SMILES = NC[C@H]1O[C@H](O[C@H]2[C@H](O)[C@@H](O[C@H]3O[C@H](CO)[C@@H](O)[C@H](N)[C@H]3O)[C@H](N)C[C@@H]2N)[C@H](O)[C@@H](O)[C@@H]1O; assay = FDA-approved drug library screen; GFP-positive cells = 81%
SMILES = CS(=O)(=O)CCNCc1ccc(-c2ccc3ncnc(Nc4ccc(OCc5cccc(F)c5)c(Cl)c4)c3c2)o1; GFP-positive cells = 22.7%

Repeated from above (study 1):
Strand = TCACATCA; result = 0.149
Strand = AGCAGTCC; result = -0.193
Strand = ATTTGGTC; result = 0.00102
Strand = GCATGAGC; result = -0.0942
Strand = ATGAGGAG; result = 0.0566
Strand = AAACATTG; result = 0.171
Strand = CCGGTGAG; result = -0.333
